Results from different studies.
Each line is one published result; not all experiments were run side by side. Numbers after ± are the reported error. Values after ≈ are worked out from the molar mass of the structure shown.
Organism: Escherichia coli

For `CC(CCCOC(=O)CCC[N+](C)(C)C)C1CCC2C3CCC4CC(OC(=O)CCC[N+](C)(C)C)CCC4(C)C3CC(OC(=O)CCC[N+](C)(C)C)C12C` (stereo not shown), the inhibition zone was 7 mm (microbial growth, disc diffusion; ATCC25922; 15.6 µg/disc, 24 h).
`O=C(CCCc1cn(C[C@H]2O[C@@H]3O[C@H]4[C@H](O)[C@@H](O)[C@@H](O[C@H]5[C@H](O)[C@@H](O)[C@@H](O[C@H]6[C@H](O)[C@@H](O)[C@@H](O[C@H]7[C@H](O)[C@@H](O)[C@@H](O[C@H]8[C@H](O)[C@@H](O)[C@@H](O[C@H]9[C@H](O)[C@@H](O)[C@@H](O[C@H]2[C@H](O)[C@H]3O)O[C@@H]9Cn2cc(CCCC(=O)N[C@H]3CCOC3=O)nn2)O[C@@H]8Cn2cc(CCCC(=O)N[C@H]3CCOC3=O)nn2)O[C@@H]7Cn2cc(CCCC(=O)N[C@H]3CCOC3=O)nn2)O[C@@H]6Cn2cc(CCCC(=O)N[C@H]3CCOC3=O)nn2)O[C@@H]5Cn2cc(CCCC(=O)N[C@H]3CCOC3=O)nn2)O[C@@H]4Cn2cc(CCCC(=O)N[C@H]3CCOC3=O)nn2)nn1)N[C@H]1CCOC1=O` has an inhibition of 17 ± 18% (LuxR reporter, antagonist; DH5α sensor strain; 1 µM, together with: OHHL 200 nM).
`CC1=N/C(=C\c2cc(F)c(O)c(F)c2)C(=O)N1Cc1ccc(CO)cc1` — result for “lowest detectable concentration”: 10 nM (cytoplasmic accumulation, flow cytometry).
With `CC[C@H](C)[C@H](NC(=O)[C@H](CC1CCCCC1)NC(=O)[C@H]1CCCN1C(=O)[C@@H](N)CCCN)C(=O)N[C@H](Cc1ccccc1)C(=O)N[C@@H](Cc1cn(Cc2ccccc2)cn1)C(N)=O` the IC50 was over 20 µg/mL (bacterial growth; ATCC 35218).
`CC(C)C1=CC2=CCC3C(C)(C(=O)OCCC[N+](C)(C)C)CCCC3(C)C2CC1` (stereo not shown) gave an inhibition zone of 12 mm (microbial growth, disc diffusion; ATCC25922; 250 µg/disc, 24 h).
The MBC of `COc1c(C)c(OCc2ccccc2)c(C)c(OCc2ccccc2)c1C(=O)/C=C/c1ccccc1` is reported as over 5000 µg/mL (microbial killing, broth dilution; ATCC25922).
Under “biofilm mass reduction”, `N=C(N)NCCC[C@@H]1NC(=O)[C@H](CCCNC(=N)N)NC(=O)[C@@H](CCCNC(=N)N)NC(=O)[C@@H](CCCNC(=N)N)NC(=O)[C@@H](C(c2ccccc2)c2ccccc2)NC(=O)[C@H](Cc2c[nH]c3ccccc23)NC(=O)[C@@H](C(c2ccccc2)c2ccccc2)NC1=O` is recorded as 63 to 69% (ATCC BAA-2452; 2 x MIC, 24 h, preformed biofilm).
For `CO[C@@H]1[C@@H](OC)[C@H]2O[C@H]3[C@H](OC)[C@@H](OC)[C@@H](O[C@H]4[C@H](OC)[C@@H](OC)[C@@H](O[C@H]5[C@H](OC)[C@@H](OC)[C@@H](O[C@H]6[C@H](OC)[C@@H](OC)[C@@H](O[C@H]7[C@H](OC)[C@@H](OC)[C@@H](O[C@@H]1[C@@H](Cn1cc(CCCC(=O)N[C@H]8CCOC8=O)nn1)O2)O[C@@H]7Cn1cc(CCCC(=O)N[C@H]2CCOC2=O)nn1)O[C@@H]6Cn1cc(CCCC(=O)N[C@H]2CCOC2=O)nn1)O[C@@H]5Cn1cc(CCCC(=O)N[C@H]2CCOC2=O)nn1)O[C@@H]4Cn1cc(CCCC(=O)N[C@H]2CCOC2=O)nn1)O[C@@H]3Cn1cc(CCCC(=O)N[C@H]2CCOC2=O)nn1`, the inhibition was 35 ± 1% (LuxR reporter, antagonist; DH5α sensor strain; 200 µM, together with: OHHL 200 nM).
The MDC of `CC(C)C[C@H](NC(=O)[C@H](Cc1ccc(O)cc1)NC(=O)[C@@H]1CCCN1C(=O)[C@H](CCCNC(=N)N)NC(=O)[C@@H]1CCCN1C(=O)[C@H](CCCCN)NC(=O)[C@H](CC(=O)O)NC(=O)[C@@H]1CCCN1C(=O)[C@H](CCCNC(=N)N)NC(=O)C1(N)CCCCC1)C(=O)N1CCC[C@H]1C(=O)N[C@@H](CCCNC(=N)N)C(=O)N1CCC[C@H]1C(=O)N[C@@H](CCCNC(=N)N)C(=O)N1CCC[C@H]1C(=O)N1CCC[C@H]1C(=O)N[C@@H](CCCNC(=N)N)C(=O)N1CCC[C@H]1C(=O)N[C@H](C(=O)N[C@@H](CCCNC(=N)N)C(=O)N[C@@H](CSCc1cccc(CSC[C@H](NC(=O)[C@H](CCCNC(=N)N)NC(=O)[C@@H](NC(=O)[C@@H]2CCCN2C(=O)[C@H](CCCNC(=N)N)NC(=O)[C@@H]2CCCN2C(=O)[C@@H]2CCCN2C(=O)[C@H](CCCNC(=N)N)NC(=O)[C@@H]2CCCN2C(=O)[C@H](CCCNC(=N)N)NC(=O)[C@@H]2CCCN2C(=O)[C@H](CC(C)C)NC(=O)[C@H](Cc2ccc(O)cc2)NC(=O)[C@@H]2CCCN2C(=O)[C@H](CCCNC(=N)N)NC(=O)[C@@H]2CCCN2C(=O)[C@H](CCCCN)NC(=O)[C@H](CC(=O)O)NC(=O)[C@@H]2CCCN2C(=O)[C@H](CCCNC(=N)N)NC(=O)C2(N)CCCCC2)C(C)C)C(=O)NN)c1)C(=O)NN)C(C)C` is reported as 19.8 ± 0.8 µg/mL (membrane disruption, propidium iodide uptake; 25922; 90 min, 37 °C).
The MBC of `CCCCCC(=O)Oc1c(C)c(OC)c2c(/C=C/c3ccccc3)c(CCCC)c(=O)oc2c1C` is reported as over 5000 µg/mL (microbial killing, broth dilution; ATCC25922).
`O=C(Oc1cccccc1=O)c1ccc(Cl)cc1` gave an MIC80 of 100 µM (≈ 26.1 µg/mL) (microbial growth, broth dilution; ATCC35218).
For `CO[C@@H]1[C@@H](OC)[C@H]2O[C@H]3[C@H](OC)[C@@H](OC)[C@@H](O[C@H]4[C@H](OC)[C@@H](OC)[C@@H](O[C@H]5[C@H](OC)[C@@H](OC)[C@@H](O[C@H]6[C@H](OC)[C@@H](OC)[C@@H](O[C@H]7[C@H](OC)[C@@H](OC)[C@@H](O[C@H]8[C@H](OC)[C@@H](OC)[C@@H](O[C@@H]1[C@@H](Cn1cc(CCCC(=O)N[C@H]9CCOC9=O)nn1)O2)O[C@@H]8Cn1cc(CCCC(=O)N[C@H]2CCOC2=O)nn1)O[C@@H]7Cn1cc(CCCC(=O)N[C@H]2CCOC2=O)nn1)O[C@@H]6Cn1cc(CCCC(=O)N[C@H]2CCOC2=O)nn1)O[C@@H]5Cn1cc(CCCC(=O)N[C@H]2CCOC2=O)nn1)O[C@@H]4Cn1cc(CCCC(=O)N[C@H]2CCOC2=O)nn1)O[C@@H]3Cn1cc(CCCC(=O)N[C@H]2CCOC2=O)nn1`, the inhibition was 17 ± 1% (LuxR reporter, antagonist; DH5α sensor strain; 20 µM, together with: OHHL 200 nM).
With `Cc1cc(O)c(=O)c(O)cc1C(=O)C1CC1` the MIC80 was 29.6 µM (≈ 6.52 µg/mL) (microbial growth, broth dilution; ATCC35218).
`OC[C@H]1O[C@@H]2O[C@H]3[C@H](O)[C@@H](O)[C@@H](O[C@H]4[C@H](O)[C@@H](O)[C@@H](O[C@H]5[C@H](O)[C@@H](O)[C@@H](O[C@H]6[C@H](O)[C@@H](O)[C@@H](O[C@H]7[C@H](O)[C@@H](O)[C@@H](O[C@H]1[C@H](O)[C@H]2O)O[C@@H]7CO)O[C@@H]6CO)O[C@@H]5CO)O[C@@H]4CO)O[C@@H]3CO` has an inhibition of -1 ± 2% (LuxR reporter, antagonist; DH5α sensor strain; 10 µM, together with: OHHL 200 nM).
`CC(CCCOC(=O)CCC[N+](C)(C)C)C1CCC2C3CCC4CC(OC(=O)CCC[N+](C)(C)C)CCC4(C)C3CCC12C` (stereo not shown) gave an inhibition zone of 15 mm (microbial growth, disc diffusion; ATCC25922; 250 µg/disc, 24 h).
`O=c1c(O)ccccc1O` gave an MIC80 of 66.7 µM (≈ 9.21 µg/mL) (microbial growth, broth dilution; ATCC35218).
`O=C(CCCc1cn(C[C@H]2O[C@@H]3O[C@H]4[C@H](O)[C@@H](O)[C@@H](O[C@H]5[C@H](O)[C@@H](O)[C@@H](O[C@H]6[C@H](O)[C@@H](O)[C@@H](O[C@H]7[C@H](O)[C@@H](O)[C@@H](O[C@H]8[C@H](O)[C@@H](O)[C@@H](O[C@H]2[C@H](O)[C@H]3O)O[C@@H]8Cn2cc(CCCC(=O)N[C@H]3CCOC3=O)nn2)O[C@@H]7Cn2cc(CCCC(=O)N[C@H]3CCOC3=O)nn2)O[C@@H]6Cn2cc(CCCC(=O)N[C@H]3CCOC3=O)nn2)O[C@@H]5Cn2cc(CCCC(=O)N[C@H]3CCOC3=O)nn2)O[C@@H]4Cn2cc(CCCC(=O)N[C@H]3CCOC3=O)nn2)nn1)N[C@H]1CCOC1=O` gave an inhibition of 20 ± 3% (LuxR reporter, antagonist; DH5α sensor strain; 100 µM, together with: OHHL 200 nM).
The inhibition zone of `CCCCCCCCCC(=O)Oc1c(C)c(OC)c2c(/C=C/c3ccccc3)c(CCCCCCCC)c(=O)oc2c1C` is reported as 12 mm (microbial growth, well diffusion; ATCC25922; 5 µg/mL).
For `O=C(CCCc1cn(C[C@H]2O[C@@H]3O[C@H]4[C@H](O)[C@@H](O)[C@@H](O[C@H]5[C@H](O)[C@@H](O)[C@@H](O[C@H]6[C@H](O)[C@@H](O)[C@@H](O[C@H]7[C@H](O)[C@@H](O)[C@@H](O[C@H]8[C@H](O)[C@@H](O)[C@@H](O[C@H]9[C@H](O)[C@@H](O)[C@@H](O[C@H]2[C@H](O)[C@H]3O)O[C@@H]9CO)O[C@@H]8CO)O[C@@H]7CO)O[C@@H]6CO)O[C@@H]5CO)O[C@@H]4CO)nn1)N[C@H]1CCOC1=O`, the inhibition was 3 ± 7% (LuxR reporter, antagonist; DH5α sensor strain; 20 µM, together with: OHHL 200 nM).
For `COc1cc(Cc2cnc(N)nc2N)cc(OC)c1OC.O=c1[nH]cc(F)c(=O)[nH]1`, the MBC was over 32 µg/mL (broth microdilution; 48 h).
For `CCCCCCCC(=O)Oc1c(C)c(OC)c2c(/C=C/c3ccccc3)c(CCCCCC)c(=O)oc2c1C`, the MBC was over 5000 µg/mL (microbial killing, broth dilution; ATCC25922).
`COc1cc2c(cc1OC)C1Cc3ccc(OC)c(OC)c3C[NH+]1CC2.[Cl][Fe-]([Cl])([Cl])[Cl]` (stereo not shown) gave an MIC50 of 1410 µM (24 h, 37 °C).

A few entries again:
`CC1=N/C(=C\c2cc(F)c(O)c(F)c2)C(=O)N1Cc1ccc(CO)cc1` — result for “lowest detectable concentration”: 10 nM (cytoplasmic accumulation, flow cytometry).
`O=c1c(O)ccccc1O` gave an MIC80 of 66.7 µM (≈ 9.21 µg/mL) (microbial growth, broth dilution; ATCC35218).
